Published values of several laboratories.
Every numbered part comes from another study and shows a few of its results, in no order. Changes are numbered by the printed parent chain.

Series 1
Target: Interferon regulatory factor 5, full length, phosphomimetic (IRF5, Homo sapiens, UniProt Q13568-2, residues 1-514, S451D/S453D/S456D/S462D)
Technique: protein-binding microarray
Form: double-stranded DNA, one strand shown
Sample: in vitro
Tested at: 940 nM top
Notes: 60-bp whole probe
Together with: salmon DNA 0.4 mg/ml
Reference: random background probes
Reading: higher = stronger binding
Constant ends, left off below: GCCTAGCAC … GTCTTGATTCGCTTGACGCTGCTG
| Sequence | fitted relative affinity [z-score] |
| --- | --- |
| TTAGGTATGGACACTGGGTTAGTGCTA | -0.481 |
| GACGATCTCAGTATCGAGACGTGCTAG | 2.37 |
| GACGGTTTCGGACTCGGGACGTGCTAG | 6.15 |
| CTTCATGTTGCTCTCCGGGGGTGCTAG | 1.04 |
| TTAGGTTTCCTTTCCCTTCAGTGCTAG | 2.1 |
| AACGGTCTCGGTTTCGGGACGTGCTAG | 5.86 |
| TTAGGACTGTACACTGGGTTAGTGCTA | -0.512 |
| GTCTGTTTCCTCTTTCTTTGGTGCTAG | 1.98 |

Series 2
Target: Centromere-binding protein 1, full length, N-terminal tag (CBF1, Saccharomyces cerevisiae, UniProt P17106, residues 1-351)
UniProt P17106, sequence (whole entry, looked up): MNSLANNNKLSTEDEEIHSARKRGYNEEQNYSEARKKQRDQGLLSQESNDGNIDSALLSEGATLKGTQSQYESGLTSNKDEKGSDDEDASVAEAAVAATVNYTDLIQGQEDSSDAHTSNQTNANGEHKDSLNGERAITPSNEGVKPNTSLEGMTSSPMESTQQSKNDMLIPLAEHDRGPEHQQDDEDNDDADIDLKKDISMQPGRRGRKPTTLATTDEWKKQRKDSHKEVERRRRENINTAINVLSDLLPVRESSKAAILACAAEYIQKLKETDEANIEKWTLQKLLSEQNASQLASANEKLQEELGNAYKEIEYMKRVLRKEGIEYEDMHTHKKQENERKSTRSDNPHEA
Technique: protein-binding microarray
Form: double-stranded DNA, one strand shown
Sample: in vitro
Tested at: 0.8 µM
Notes: whole 60-bp probe, no competitor
Reading: higher = stronger binding
Constant ends, left off below: … GTCTTGATTCGCTTGACGCTGCTG
| Sequence | fluorescence intensity |
| --- | --- |
| GAACCTGTGTTCTATAACGTGAACCATAAGCTTTAG | 590 a.u. |
| CCTAACTACTATAAGTGTGTGACATAGCTTCGTACA | 593 a.u. |
| GAATTATTCTTCTCTGATGCACGTTCTTTAGACTAG | 604 a.u. |
| GAATCCTAGGTTTGTCACGACGGTGGCCACCGGTAG | 623 a.u. |
| GAACAAACTTATGCCAACGTGACCATTTATTATTAG | 3730 a.u. |
| GAACATACACATATATGCGTGCATGTTGGCAAGTAG | 534 a.u. |
| GAAGCGCAAGCTCGCCATCACTGTAAATGAAATTAG | 499 a.u. |
| CTACGTATATCACATCACGTTTACGCGTATGGTTTC | 1690 a.u. |

Series 3
Target: Prothrombin, mature alpha-thrombin (F2, Homo sapiens, UniProt P00734)
Technique: aptamer microarray, sandwich
Form: DNA with 2'F-ANA
Sample: in vitro
Tested at: 200 nM
Notes: whole 15-mer aptamer, many near background
Together with: Cy3 exosite-II aptamer, 400 nM
Reading: higher = stronger binding
Sequence: GGTTGGTGTGGTTGG
| Modification | mean fluorescence intensity |
| --- | --- |
| 2'F-ANA at 1 2 3 4 6 7 12 13 | 206 a.u. |
| 2'F-ANA at 3 4 6 8 10 11 13 14 | 142 a.u. |
| 2'F-ANA at 1 3 5 6 10 11 | 50.1 a.u. |
| 2'F-ANA at 5 9 10 11 12 14 | 46.7 a.u. |
| 2'F-ANA at 4 6 8 12 13 15 | 386 a.u. |
| 2'F-ANA at 1 2 7 8 10 11 15 | 54.2 a.u. |
| 2'F-ANA at 3 7 12 14 15 | 731 a.u. |
| 2'F-ANA at 1 2 4 7 9 13 14 | 91.7 a.u. |

Mixed results
Parent: viral docking peptide; TSVRRALFTGGSD
| Change | target | assay | test system | setting | how to read | endpoint | value |
| --- | --- | --- | --- | --- | --- | --- | --- |
| R4W | CCNA1, cyclin fold, Cln2 fusion (human) | yeast growth competition, sequencing | yeast | strong parent motif | reference: not given, higher = stronger binding | normalised enrichment score | -0.236 |

Repeated from above (series 1):
| Sequence | fitted relative affinity [z-score] |
| --- | --- |
| CTTCATGTTGCTCTCCGGGGGTGCTAG | 1.04 |
| GACGATCTCAGTATCGAGACGTGCTAG | 2.37 |
| TTAGGACTGTACACTGGGTTAGTGCTA | -0.512 |
| GACGGTTTCGGACTCGGGACGTGCTAG | 6.15 |
